Results pooled from the literature.
Protocols differ between the studies behind these lines. ± gives the spread as reported.
MAOB: Amine oxidase [flavin-containing] B (MAOB, Homo sapiens, UniProt P27338)
Sequence of UniProt P27338 (whole entry, looked up): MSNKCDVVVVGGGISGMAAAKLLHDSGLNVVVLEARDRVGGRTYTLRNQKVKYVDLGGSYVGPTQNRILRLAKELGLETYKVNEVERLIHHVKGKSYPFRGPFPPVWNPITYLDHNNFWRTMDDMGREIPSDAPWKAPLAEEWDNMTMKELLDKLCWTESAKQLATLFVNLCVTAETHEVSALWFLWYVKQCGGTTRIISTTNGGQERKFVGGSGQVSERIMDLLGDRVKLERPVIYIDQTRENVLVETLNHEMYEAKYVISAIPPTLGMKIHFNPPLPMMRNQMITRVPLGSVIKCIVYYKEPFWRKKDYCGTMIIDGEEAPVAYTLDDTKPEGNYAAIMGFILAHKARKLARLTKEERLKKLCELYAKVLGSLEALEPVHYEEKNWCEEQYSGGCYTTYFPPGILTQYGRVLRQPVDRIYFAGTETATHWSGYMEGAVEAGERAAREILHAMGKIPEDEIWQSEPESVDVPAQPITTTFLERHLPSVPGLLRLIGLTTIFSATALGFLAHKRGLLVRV
Tmem97: Sigma intracellular receptor 2 (Tmem97, Rattus norvegicus, UniProt Q5U3Y7)
Sequence of UniProt Q5U3Y7 (whole entry, looked up): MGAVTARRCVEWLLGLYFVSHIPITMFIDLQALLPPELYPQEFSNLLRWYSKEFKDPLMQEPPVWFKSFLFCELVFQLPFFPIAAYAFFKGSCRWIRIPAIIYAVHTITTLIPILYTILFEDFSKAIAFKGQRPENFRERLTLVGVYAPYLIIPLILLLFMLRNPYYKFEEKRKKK
TDP1: Tyrosyl-DNA phosphodiesterase 1 (TDP1, Homo sapiens, UniProt Q9NUW8)
Sequence of UniProt Q9NUW8 (whole entry, looked up): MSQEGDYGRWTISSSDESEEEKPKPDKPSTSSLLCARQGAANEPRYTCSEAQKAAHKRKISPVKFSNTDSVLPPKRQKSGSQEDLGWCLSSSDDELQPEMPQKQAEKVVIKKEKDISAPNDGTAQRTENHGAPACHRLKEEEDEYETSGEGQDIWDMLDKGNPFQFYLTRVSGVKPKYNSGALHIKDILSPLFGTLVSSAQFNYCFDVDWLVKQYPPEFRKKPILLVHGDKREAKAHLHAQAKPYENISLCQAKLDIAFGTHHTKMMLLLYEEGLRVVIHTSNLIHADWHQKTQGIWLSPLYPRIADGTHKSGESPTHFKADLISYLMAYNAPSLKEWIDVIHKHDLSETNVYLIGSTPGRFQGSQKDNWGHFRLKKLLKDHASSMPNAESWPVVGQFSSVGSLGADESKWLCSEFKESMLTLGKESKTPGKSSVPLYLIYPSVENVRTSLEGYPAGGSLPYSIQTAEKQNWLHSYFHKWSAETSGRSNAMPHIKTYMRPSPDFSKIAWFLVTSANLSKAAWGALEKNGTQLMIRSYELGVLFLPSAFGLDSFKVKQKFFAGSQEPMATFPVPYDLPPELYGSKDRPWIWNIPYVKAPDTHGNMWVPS
Sequence of UniProt P22310 (whole entry, looked up): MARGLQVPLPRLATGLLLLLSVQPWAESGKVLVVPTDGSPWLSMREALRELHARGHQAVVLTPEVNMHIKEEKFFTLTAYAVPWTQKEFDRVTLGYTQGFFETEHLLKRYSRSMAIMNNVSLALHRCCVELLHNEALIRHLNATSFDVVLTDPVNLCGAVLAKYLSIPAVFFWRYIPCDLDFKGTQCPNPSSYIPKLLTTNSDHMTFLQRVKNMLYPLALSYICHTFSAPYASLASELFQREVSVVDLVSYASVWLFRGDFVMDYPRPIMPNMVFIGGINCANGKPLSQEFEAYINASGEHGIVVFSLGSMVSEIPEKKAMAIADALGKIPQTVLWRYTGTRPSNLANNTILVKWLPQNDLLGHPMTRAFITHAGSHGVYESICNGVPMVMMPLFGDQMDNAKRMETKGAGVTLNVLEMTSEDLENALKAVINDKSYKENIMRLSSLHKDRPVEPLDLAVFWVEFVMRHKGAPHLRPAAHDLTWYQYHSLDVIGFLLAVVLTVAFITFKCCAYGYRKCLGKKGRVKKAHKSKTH
Sequence of UniProt P11712 (whole entry, looked up): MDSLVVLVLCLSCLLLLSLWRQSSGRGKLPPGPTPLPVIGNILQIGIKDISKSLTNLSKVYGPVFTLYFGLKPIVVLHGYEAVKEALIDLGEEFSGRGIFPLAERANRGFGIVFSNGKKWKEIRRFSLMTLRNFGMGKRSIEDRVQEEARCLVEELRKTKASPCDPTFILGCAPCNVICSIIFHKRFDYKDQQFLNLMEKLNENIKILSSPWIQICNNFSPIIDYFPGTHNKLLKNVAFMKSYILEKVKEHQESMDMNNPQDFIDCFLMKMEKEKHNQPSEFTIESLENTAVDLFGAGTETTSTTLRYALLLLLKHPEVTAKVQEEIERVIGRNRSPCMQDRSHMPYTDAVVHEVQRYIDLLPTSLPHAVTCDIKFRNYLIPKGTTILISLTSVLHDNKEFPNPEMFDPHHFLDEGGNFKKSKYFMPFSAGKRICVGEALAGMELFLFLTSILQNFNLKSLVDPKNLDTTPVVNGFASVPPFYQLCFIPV
Sequence of UniProt P0A7A9 (whole entry, looked up): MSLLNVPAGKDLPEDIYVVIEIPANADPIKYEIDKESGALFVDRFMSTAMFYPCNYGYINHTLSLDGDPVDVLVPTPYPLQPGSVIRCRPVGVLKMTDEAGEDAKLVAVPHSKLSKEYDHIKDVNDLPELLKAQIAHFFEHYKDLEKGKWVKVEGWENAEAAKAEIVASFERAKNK
Sequence of UniProt Q8IAS0 (whole entry, looked up): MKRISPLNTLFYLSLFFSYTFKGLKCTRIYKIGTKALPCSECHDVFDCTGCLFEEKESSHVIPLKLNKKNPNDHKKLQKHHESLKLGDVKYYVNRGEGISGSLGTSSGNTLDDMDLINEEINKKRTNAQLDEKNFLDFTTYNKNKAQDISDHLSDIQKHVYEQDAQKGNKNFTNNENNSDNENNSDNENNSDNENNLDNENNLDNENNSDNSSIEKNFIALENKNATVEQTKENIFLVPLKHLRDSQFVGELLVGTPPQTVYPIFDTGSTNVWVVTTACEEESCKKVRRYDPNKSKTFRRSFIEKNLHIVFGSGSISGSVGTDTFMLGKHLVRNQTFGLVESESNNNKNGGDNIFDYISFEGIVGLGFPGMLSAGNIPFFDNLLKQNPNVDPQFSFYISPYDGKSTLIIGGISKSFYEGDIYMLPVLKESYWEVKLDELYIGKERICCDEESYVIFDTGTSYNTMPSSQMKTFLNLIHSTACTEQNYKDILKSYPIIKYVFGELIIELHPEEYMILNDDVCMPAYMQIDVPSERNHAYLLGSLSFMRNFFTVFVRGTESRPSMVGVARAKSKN
Sequence of UniProt Q86U44 (whole entry, looked up): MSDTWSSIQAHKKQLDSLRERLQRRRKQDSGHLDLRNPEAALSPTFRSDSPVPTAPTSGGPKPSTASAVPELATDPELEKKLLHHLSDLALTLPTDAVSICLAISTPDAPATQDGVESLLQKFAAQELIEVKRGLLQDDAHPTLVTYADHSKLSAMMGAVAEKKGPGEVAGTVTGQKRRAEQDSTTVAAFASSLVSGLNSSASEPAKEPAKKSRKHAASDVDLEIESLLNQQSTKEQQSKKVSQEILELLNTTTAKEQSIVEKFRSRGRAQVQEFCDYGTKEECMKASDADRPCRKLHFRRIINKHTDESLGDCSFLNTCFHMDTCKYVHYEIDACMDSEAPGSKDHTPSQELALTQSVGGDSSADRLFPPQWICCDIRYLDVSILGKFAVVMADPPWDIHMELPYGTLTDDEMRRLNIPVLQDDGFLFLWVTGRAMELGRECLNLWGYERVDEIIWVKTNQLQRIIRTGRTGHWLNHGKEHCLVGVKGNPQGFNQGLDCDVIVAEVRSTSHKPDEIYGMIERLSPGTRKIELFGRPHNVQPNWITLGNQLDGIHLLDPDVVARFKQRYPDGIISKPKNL
Sequence of UniProt P20309 (whole entry, looked up): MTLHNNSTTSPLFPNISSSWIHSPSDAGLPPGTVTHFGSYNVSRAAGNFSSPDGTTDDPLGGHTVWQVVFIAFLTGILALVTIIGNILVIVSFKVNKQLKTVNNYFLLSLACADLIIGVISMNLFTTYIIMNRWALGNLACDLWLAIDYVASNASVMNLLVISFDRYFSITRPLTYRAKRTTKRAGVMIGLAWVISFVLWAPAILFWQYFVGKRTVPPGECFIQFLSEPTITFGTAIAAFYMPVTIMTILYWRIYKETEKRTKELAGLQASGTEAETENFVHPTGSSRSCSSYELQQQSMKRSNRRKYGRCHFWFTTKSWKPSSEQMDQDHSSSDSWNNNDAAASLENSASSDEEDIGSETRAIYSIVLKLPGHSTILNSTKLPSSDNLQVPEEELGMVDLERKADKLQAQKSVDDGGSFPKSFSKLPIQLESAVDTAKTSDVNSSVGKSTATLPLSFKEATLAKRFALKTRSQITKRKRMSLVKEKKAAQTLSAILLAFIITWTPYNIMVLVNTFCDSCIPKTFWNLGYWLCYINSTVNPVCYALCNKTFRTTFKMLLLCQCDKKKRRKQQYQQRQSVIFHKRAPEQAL
Sequence of UniProt P41146 (whole entry, unmodified, looked up): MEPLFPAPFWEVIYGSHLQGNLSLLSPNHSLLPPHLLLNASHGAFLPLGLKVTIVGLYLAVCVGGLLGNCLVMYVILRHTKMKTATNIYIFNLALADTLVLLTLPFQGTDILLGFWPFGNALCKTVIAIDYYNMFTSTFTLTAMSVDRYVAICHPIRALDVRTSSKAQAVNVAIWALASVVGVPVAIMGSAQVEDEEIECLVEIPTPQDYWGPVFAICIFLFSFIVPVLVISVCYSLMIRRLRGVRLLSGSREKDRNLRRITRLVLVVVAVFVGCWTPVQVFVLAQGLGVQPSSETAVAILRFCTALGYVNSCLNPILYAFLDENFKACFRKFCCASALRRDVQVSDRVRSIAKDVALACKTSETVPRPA

Compound	target	test	test system	setting	endpoint	value
Cc1cc(O)c2c(c1)C(=O)c1c(O)c(O)cc(O)c1C2=O	MAOB	enzyme activity, inhibitor	–	–	Ki	17100 nM
COc1ccc2c(c1OC)C(=O)N(c1nc3ccccc3s1)C2	Uncharacterized protein (Trypanosoma brucei brucei, UniProt Q386Q8)	enzyme activity, inhibitor, coupled colorimetric	–	together with: E. coli pyrophosphatase coupling	IC50	74700 nM
Cc1cc(O)c2c(c1O)C(=O)c1cc(O)cc(O)c1C2=O	MAOB	enzyme activity, inhibitor	–	–	Ki	10700 nM
O=C(NCCCN1CCC2(CC1)OCc1ccccc12)C1CCCN1Cc1ccccc1 (centres unmarked)	Nociceptin receptor (OPRL1, Homo sapiens, UniProt P41146, M134A)	–	–	–	Ki	0.5 nM
CN(C)c1nc(NCc2ccc(F)cc2)c(/N=N/c2ccc(Cl)cc2)c(N(C)C)n1	Chitinase (OfChi-h, Ostrinia furnacalis, UniProt Q4AE59)	enzyme activity, inhibitor, fluorescence	–	–	Ki	23.2 nM
Cn1ccc2c(N3CCN(CCCCOc4ccc5c(c4)NC(=O)CC5)CC3)cccc21	CHRM3 (Homo sapiens, UniProt P20309)	ligand displacement, radioligand	–	–	Ki	105 nM
CCCC(=O)OC1CCC2(C)C(CCC3(C)C2CC=C2C4C(C)C(C)CCC4(C(=O)O)CCC23C)C1(C)C (centres unmarked)	UGT1A4 (Homo sapiens, UniProt P22310)	enzyme activity, inhibitor	–	–	Ki	610 nM
Cc1ccc2c(c1)C(O)(CC(=O)c1ccc3c(c1)OCO3)C(=O)N2 (centres unmarked)	ppa (Escherichia coli, UniProt P0A7A9)	enzyme activity, inhibitor	–	–	IC50	> 100000 nM
OC1CCCCC1N1CCC(c2ccc(Br)cc2)CC1 (racemic)	Tmem97	radioligand binding	rat liver	together with: [3H]DTG, 1 µM dextrallorphan mask	Ki	13 ± 1 nM
COc1cc(C=NOCc2ccc(-c3nc4cc(-c5ccccc5)ccn4c3Nc3ccc(C(=O)O)cc3)cc2)ccc1F (mixture of isomers)	TDP1	enzyme activity, inhibitor	–	100 µM, unpurified compound	inhibition	23.7%
CCC1(CC)CC(=O)N(C2CCOc3ccc(C(=O)NC4CC(C)(C)Oc5ccccc54)cc32)C(=N)N1 (centres unmarked)	Plasmepsin X (Plasmodium falciparum, UniProt Q8IAS0)	enzyme activity, inhibitor	–	–	Ki	0.01 nM
CC(C)c1ccc(/C=C/C(=O)c2ccc(F)cc2)cc1	MAOB	enzyme activity, inhibitor	–	–	Ki	27 nM
OC1Cc2ccccc2CC1N1CCC(c2ccc(Br)cc2)CC1 (racemic)	Tmem97	radioligand binding	rat liver	together with: [3H]DTG, 1 µM dextrallorphan mask	Ki	21 ± 1 nM
Nc1c(NCC[Se]C[C@H]2O[C@@H](n3cnc4c(N)ncnc43)[C@H](O)[C@@H]2O)c(=O)c1=O	N6-adenosine-methyltransferase catalytic subunit, with METTL14 (METTL3, Homo sapiens, UniProt Q86U44)	inhibitor	–	–	Ki	20 nM
Cc1ccc(C2CCN(C3CCCCC3O)CC2)cc1 (racemic)	Tmem97	radioligand binding	rat liver	together with: [3H]DTG, 1 µM dextrallorphan mask	Ki	62 ± 18 nM
CSc1nc(C=NOCc2ccc(-c3nc4cc(-c5ccccc5)ccn4c3Nc3ccc(C(=O)O)cc3)cc2)ccc1C#N (mixture of isomers)	TDP1	enzyme activity, inhibitor	–	100 µM, unpurified compound	inhibition	35.7%
COc1ccc(-c2coc3cc(O)cc(O)c3c2=O)cc1	Cytochrome P450 2C9 (CYP2C9, Homo sapiens, UniProt P11712)	enzyme activity, inhibitor	human, liver microsomes	15 min	Ki	15600 nM

Repeated from above:
Compound	target	test	test system	setting	endpoint	value
CSc1nc(C=NOCc2ccc(-c3nc4cc(-c5ccccc5)ccn4c3Nc3ccc(C(=O)O)cc3)cc2)ccc1C#N (mixture of isomers)	TDP1	enzyme activity, inhibitor	–	100 µM, unpurified compound	inhibition	35.7%
COc1ccc(-c2coc3cc(O)cc(O)c3c2=O)cc1	Cytochrome P450 2C9 (CYP2C9, Homo sapiens, UniProt P11712)	enzyme activity, inhibitor	human, liver microsomes	15 min	Ki	15600 nM
